Measurements pooled from the literature.
Parts stem from different laboratories: compare values within a part only. Substitutions count along the parent as printed.

Sample 1
Target: CCNE2, cyclin fold, Cln2 fusion (human)
Method: yeast growth competition, sequencing
Matrix: yeast
Setting: strong parent motif
Reference: not given
Reading: higher = stronger binding
Measurement: normalised enrichment score
Starting sequence: INSM1 docking peptide (human); PKAIRKLHFEDEV; partner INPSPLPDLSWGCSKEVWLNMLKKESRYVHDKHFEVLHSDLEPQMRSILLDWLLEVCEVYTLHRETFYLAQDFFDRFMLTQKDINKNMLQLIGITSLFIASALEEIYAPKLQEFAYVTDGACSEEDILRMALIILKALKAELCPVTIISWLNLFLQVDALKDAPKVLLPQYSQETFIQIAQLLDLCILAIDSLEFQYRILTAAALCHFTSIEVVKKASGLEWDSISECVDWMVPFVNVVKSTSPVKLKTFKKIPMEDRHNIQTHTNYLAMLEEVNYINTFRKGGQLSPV
R5V: 0.0195
K2E: 0.63
R5I: -0.21
E10W: 0.751
F9V: -0.0735
K2A: 1.25
E10G: 2.85

Sample 2
Target: Interferon regulatory factor 5, full length, phosphomimetic (IRF5, Homo sapiens, UniProt Q13568-2, residues 1-514, S451D/S453D/S456D/S462D)
Method: protein-binding microarray
Molecule type: double-stranded DNA, one strand shown
Matrix: in vitro
Concentration: 940 nM top
Setting: 60-bp whole probe
Together with: salmon DNA 0.4 mg/ml
Reference: random background probes
Reading: higher = stronger binding
Measurement: fitted relative affinity
Shared flanks, not repeated: GCCTAGCAC … GTCTTGATTCGCTTGACGCTGCTG
TTAAGACTGGGTTTCGGTTAGTGCTAG: 7.62 z-score
TTAGTACTGGGGTTTCGATTAGTGCTA: 5.39 z-score
GCTTCTCCTTGGAATAGATCGTGCTAG: -0.0706 z-score
GACGGTTTCGGGTTACGGGACGTGCTA: 9.61 z-score
GACGGACTGCTTTTCCTGAGGTGCTAG: -0.336 z-score
TTAGAACTGCTTTTCCTTTAGTGCTAG: 0.1 z-score
TTAGGTTTCCTTTTCATTTAGTGCTAG: 2.35 z-score
TTAGGTTTCGGATTCGGTTAGTGCTAG: 8.57 z-score
TTAGATCTCAGGCTGGATTAGTGCTAG: -0.363 z-score
TTAGGTTTCCTTCTACTTTAGTGCTAG: 2.48 z-score
AAGAGTTTCCCTCCCTGAGTGTGCTAG: 1.14 z-score
TCAAATTTCCCTCTGCTACTGTGCTAG: 0.737 z-score

Sample 3
Target: ABI1, truncated, D143A, DHFR fusion (Arabidopsis thaliana)
Method: DHFR PCA, deep sequencing
Matrix: yeast
Setting: methotrexate growth selection, single substitutions
Together with: (+)-ABA 0.0091 µM
Reference: wild-type fitted maximum
Reading: higher = stronger binding
Measurement: relative binding score
Starting sequence: PYL1, truncated, DHFR fusion (Arabidopsis thaliana); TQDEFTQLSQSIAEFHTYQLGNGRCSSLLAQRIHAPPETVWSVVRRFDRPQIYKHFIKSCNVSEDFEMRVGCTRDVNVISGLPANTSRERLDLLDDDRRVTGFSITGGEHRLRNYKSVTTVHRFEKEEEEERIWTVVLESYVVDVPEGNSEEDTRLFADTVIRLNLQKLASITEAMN
D96F: -8.95%
E64W: 1.91%
L91F: 3.23%
E14M: 8.09%
Y115E: -1.04%

Mixed results
PhoQ, residues 284 288 289 292 302 303 NLALSC  fold induction (PhoP, residues 12 14 15 18 19 YHFSH (Escherichia coli, UniProt P23836); Sort-seq, refers to: YFP reporter; E. coli; PhoQ-PhoP variant library, together with: 10 µM Mg2+; reference: high Mg2+ state, higher = stronger signaling): 2.18
